Experimental data pooled from the literature.
Protocols differ between the studies behind these lines. “And” joins repeats or separate records; there may be more than shown. ± marks the error that the study gave. Values after ≈ are worked out from the molar mass of the structure shown.

Nc1ccn(C2CCC(OC(C(=O)O)P(=O)(O)O)C2)c(=O)n1 (racemic) — fold resistance (HIV-1 reverse transcriptase K70Q; enzyme activity, inhibitor; together with: poly(rI)·oligo(dC), [3H]dCTP; reference: mutant over wild type): 0.3 fold
CCCCCCCCCCCCCCCC(=O)N[C@@H](CCC(=O)NCCOCCOCCC(=O)NCCOCCOCCC(=O)NCCCC[C@H](NC(=O)[C@H](CC(=O)O)NC(=O)[C@H](CC(C)C)NC(=O)[C@H](Cc1ccc(O)cc1)NC(=O)[C@H](CCCCN)NC(=O)[C@H](CO)NC(=O)[C@H](Cc1ccc(O)cc1)NC(=O)[C@H](CC(=O)O)NC(=O)[C@H](CO)NC(=O)[C@@H](NC(=O)[C@H](Cc1ccccc1)NC(=O)[C@@H](NC(=O)CNC(=O)[C@H](CCC(N)=O)NC(=O)[C@@H](CO)NC(=O)[C@@H](N)Cc1c[nH]cn1)[C@@H](C)O)[C@@H](C)O)C(=O)N[C@@H](CCCNC(=N)N)C(=O)N[C@@H](CCCNC(=N)N)C(=O)N[C@@H](C)C(=O)N[C@@H](CCC(N)=O)C(=O)N[C@@H](CC(=O)O)C(=O)N[C@@H](Cc1ccccc1)C(=O)N[C@H](C(=O)N[C@@H](CCC(N)=O)C(=O)N[C@@H](Cc1c[nH]c2ccccc12)C(=O)N[C@@H](CC(C)C)C(=O)N[C@@H](CC(C)C)C(=O)N[C@@H](CC(N)=O)C(=O)N[C@H](C(=O)NCC(=O)NCC(=O)N1CCC[C@H]1C(=O)N[C@@H](CO)C(=O)N[C@@H](CO)C(=O)NCC(=O)N[C@@H](C)C(=O)N1CCC[C@H]1C(=O)N1CCC[C@H]1C(=O)N1CCC[C@H]1C(=O)N[C@@H](CO)C(N)=O)[C@@H](C)O)C(C)C)C(=O)O — JNK phosphorylation and cleaved caspase-3 (Western blot; C57BL/6J mouse CCl4 model, liver; dose not given): decreased
Cc1cc(/C=C/C#N)cc(C)c1-n1cnc2cnc(Nc3ccc(C#N)cc3)nc21 — EC50 (HIV-1; viral replication, single-round infection; RT mutant P236L): 0.2 ± 0.04 nM
N=C(N)NCc1cn([C@@H]2[C@@H](OCCn3cc(COCCOCCOCCn4cc(-c5cc(OCCOCCO)c(C#Cc6cc(OCCOCCO)c(C#Cc7cc(OCCOCCO)c(-c8cn(CCOCCOCCOCc9cn(CCO[C@H]%10O[C@H](CO)[C@@H](O)[C@H](O)[C@@H]%10n%10cc(CNC(=N)N)nn%10)nn9)nn8)cc7OCCOCCO)cc6OCCOCCO)cc5OCCOCCO)nn4)nn3)O[C@H](CO)[C@@H](O)[C@@H]2O)nn1 — IC50 (DC-SIGN (human); viral trans-infection; Jurkat expressing DC-SIGN, Severe acute respiratory syndrome coronavirus 2; rVSV-luc pseudovirus): > 100000 nM
Cc1cn(C2CCC(OC(C(=O)O)P(=O)(O)O)C2)c(=O)[nH]c1=O (racemic) — fold resistance (HIV-1 reverse transcriptase E138K; enzyme activity, inhibitor; together with: poly(rA)·oligo(dT), [3H]dTTP; reference: mutant over wild type): 1 fold
O=C(NCc1ccc(F)cc1F)c1cn2c(c(O)c1=O)C(=O)N(CCCCO)CC2 — EC50 (human immunodeficiency virus 1; single-round vector infection; integrase G140S/Q148H): 1100 ± 11.2 nM
COc1c(/C=C/C(=O)c2ccc(O)cc2)ccc(O)c1O — inhibition (viral replication; SARS-CoV-2 trVLP system; 100 µM): > 90%
COCCCn1ccn2cc(C(=O)NCc3ccc(F)cc3F)c(=O)c(O)c2c1=O — EC50 (human immunodeficiency virus 1; single-round vector infection; integrase S230N): 4.6 ± 0.4 nM
Cc1ccc(NS(=O)(=O)c2c(C(=O)N3CCCCCC3)c(C)n(C)c2C)c(Cl)c1 — relative infection (Monkeypox virus; qPCR; Vero C1008, wild type; 20 µM, 72 h; reference: untreated): 19.7% and 21.8% and 15%
CC(C)CC(C)n1ccn2cc(C(=O)NCc3ccc(F)cc3F)c(=O)c(O)c2c1=O (stereo not drawn) — EC50 (human immunodeficiency virus 1; single-round vector infection; integrase N155H): 12.6 ± 1.2 nM
CC(C)CC(C(=O)N1CC2(CC1C#N)C(=O)Nc1ccccc12)N(C)C(=O)c1cc2c(F)cc(F)c(F)c2[nH]1 (stereo not drawn) — inhibition (pangolin coronavirus; viral replication; 0.03704 µM): 98.8%
O=C(NCc1ccc(F)cc1F)c1cn2ccn(CCCCCCO)c(=O)c2c(O)c1=O — EC50 (human immunodeficiency virus 1; single-round vector infection; integrase G140S/Q148H): 295 ± 19 nM
Cc1cc(/C=C/C#N)cc(C)c1Nc1nc(Nc2ccc(C#N)cc2)ncc1N — EC50 (HIV-1; viral replication, single-round infection; RT mutant E138K/M184V): 2.4 ± 0.2 nM
CC(C)n1ccn2cc(C(=O)NCc3ccc(F)cc3F)c(=O)c(O)c2c1=O — EC50 (human immunodeficiency virus 1; single-round vector infection; integrase N155H): 4.3 ± 0.3 nM
CC[C@H](C)[C@H](NC(=O)[C@H](CCCCN)NC(=O)[C@H](CCCCN)NC(=O)[C@H](CC(C)C)NC(=O)[C@H](Cc1c[nH]c2ccccc12)NC(=O)CN)C(=O)NCC(=O)N[C@@H](CCCCN)C(=O)N[C@@H](CCCCN)C(=O)N[C@H](C(=O)N[C@@H](CCC(=O)O)C(=O)N[C@@H](CCCNC(=N)N)C(=O)N[C@H](C(=O)NCC(=O)N[C@@H](CCC(N)=O)C(=O)N[C@@H](Cc1c[nH]cn1)C(=O)N[C@H](C(=O)N[C@@H](CCCNC(=N)N)C(=O)N[C@@H](CC(=O)O)C(=O)N[C@@H](C)C(=O)N[C@H](C(=O)N[C@H](C(=O)N[C@@H](CCC(N)=O)C(=O)N[C@H](C(=O)N[C@H](C(=O)NCC(=O)N[C@H](C(=O)N[C@@H](C)C(=O)N[C@@H](CCC(N)=O)C(=O)N[C@@H](CCC(N)=O)C(=O)N[C@@H](C)C(=O)N[C@@H](C)C(=O)N[C@@H](CC(N)=O)C(=O)N[C@H](C(=O)N[C@@H](C)C(=O)N[C@@H](C)C(=O)N[C@H](C(=O)N[C@@H](CC(C)C)C(=O)N[C@@H](CCCCN)C(N)=O)[C@@H](C)O)C(C)C)C(C)C)[C@@H](C)CC)[C@@H](C)O)[C@@H](C)CC)[C@@H](C)O)[C@@H](C)O)C(C)C)[C@@H](C)CC — MIC (Acinetobacter baumannii; broth microdilution; ATCC 19606, CAMHB): 4 µg/mL (≈ 0.952 µM)

Some of these lines once more:
O=C(NCc1ccc(F)cc1F)c1cn2ccn(CCCCCCO)c(=O)c2c(O)c1=O — EC50 (human immunodeficiency virus 1; single-round vector infection; integrase G140S/Q148H): 295 ± 19 nM
